Literature values, collected from citations in different studies.
Compare with care: the assays were run in different laboratories. Numbers after ± are the reported error. ≈ marks a conversion by molar mass, not a printed value.

SMILES	target or system	assay	system	conditions	scale	endpoint	result
Cc1ccccc1-c1cc(N2CCNCC2)ncc1N(C)C(=O)C(C)(C)c1cc(C(F)(F)F)cc(C(F)(F)F)c1	–	–	healthy volunteers, plasma	oral, 450 mg, single dose, together with: palonosetron 0.75 mg	–	Cmax	59.1 ng/mL
CC(=O)N[C@H](CC(=O)O)C(=O)N[C@H](Cc1c[nH]c2ccccc12)C(=O)N[C@H](Cc1ccccc1)C(=O)N[C@H](CCCCN)C(=O)N[C@H](C)C(=O)N[C@H](Cc1ccccc1)C(=O)N[C@H](Cc1ccc(O)cc1)C(=O)N[C@H](CC(=O)O)C(=O)N[C@H](CCCCN)C(=O)N[C@@H](C(=O)N[C@H](C)C(=O)N[C@H](CCC(=O)O)C(=O)N[C@H](CCCCN)C(=O)N[C@H](Cc1ccccc1)C(=O)N[C@H](CCCCN)C(=O)N[C@H](CCC(=O)O)C(=O)N[C@H](C)C(=O)N[C@H](Cc1ccccc1)C(N)=O)C(C)C	–	–	apoE-knockout mouse, plasma	up to 45 mg/kg	baseline: subcutaneous over oral	plasma level ratio	~1000 fold
Cc1ccc(O)c(CN(CCN(Cc2ccccn2)Cc2ccccn2)Cc2ccccn2)c1	–	–	–	25 °C	–	pKa2	10
CCN(CC)C(=O)c1ccc(-c2c3ccc(=[N+](C)C)cc-3sc3cc4c(cc23)C(C)(C)CCN4C)s1	–	–	n-octanol/water	–	–	logP	1.4
Nc1ncnc2c1ncn2C1CC(O)C(COP(=O)(O)OP(=O)(O)C(F)P(=O)(O)O)O1 (mixture of isomers)	–	refers to: bisphosphonate leaving group	aqueous solution	measured experimentally	–	pKa4	9
CC(=O)Nc1cc(Nc2cc(NC3CC3)n3ncc(C#N)c3n2)ccc1C	–	–	rat, plasma	oral, 10 mg/kg	–	Cmax	300 nM
C=C[C@@H]1C[C@]1(NC(=O)[C@@H]1C[C@@H](Oc2ncc(OC)c3ccccc23)CN1C(=O)[C@@H](NC(=O)OC(C)(C)C)C(C)(C)C)C(=O)NS(=O)(=O)C1CC1	–	–	rat, liver	intravenous, 5 mg/kg, 24 h	–	tissue concentration	8 µM
O=C1C2=C(CCN(Cc3ccccc3)C2)N2CCN=C2N1Cc1ccc(C(F)(F)F)cc1	–	–	rats	oral, 50 mg/kg	–	Tmax	30 min
O=S(=O)(c1ccccc1)N1CCCCC1	–	–	PBS	24 h, pH 7	–	recovery	100%
O=C([O-])CN1CCN(CC(=O)[O-])CCN(Cc2cccc(C(=O)[O-])n2)CCN(CC(=O)[O-])CC1.[Eu+3]	–	–	1 M HCl	298 K	–	dissociation half-life	5.7 min
O=C([O-])CN1CCN(CC(=O)[O-])CCN(CC(=O)NCC2CCC(C(=O)NC(Cc3ccc4ccccc4c3)C(=O)NCCCCC(NC(=O)NC(CCC(=O)O)C(=O)O)C(=O)O)CC2)CCN(CC(=O)[O-])CC1.[68Ga+3] (stereo not shown)	–	–	human, spleen	literature data	–	absorbed dose	0.029 mSv/MBq
Cc1ccccc1-c1cc(N2CC[N+](C)([O-])CC2)ncc1NC(=O)C(C)(C)c1cc(C(F)(F)F)cc(C(F)(F)F)c1	–	–	urine	oral, concentration not given, dosed as palonosetron	baseline: dose	urinary excretion	17.2%
CN(C)c1ccc(-c2cc3cc(I)ccc3o2)cn1	–	–	intestine	60 min	–	tissue uptake	50 ID%/g
Cc1cc(C(=O)O)ccc1Sc1ccccc1N1CCNCC1	–	–	plasma	vortioxetine	baseline: metabolite AUC over vortioxetine AUC	metabolic ratio	~1
CC(C)(C)C1=CC(=NNC(=O)c2ccncc2)C=C(C(C)(C)C)C1=O	–	–	–	pH 7.4	–	logD	3.9
C[C@@H](OC(=O)Cc1ccc(Cl)c(SC2C(=O)CC(c3c(Cl)cccc3Cl)CC2=O)c1)c1ccccc1 (stereo partly shown)	–	–	plasma	ester bond hydrolysis	–	plasma stability	unstable
CCCCCCc1ccc(Oc2ccccc2C#N)c(O)c1	–	–	mouse	40 mg/kg	–	volume of distribution	96 L/kg
NCCCC[C@H](NC(=O)[C@@H]1CCCN1C(=O)[C@@H]1CSSC[C@H](NC(=O)CNC(=O)CNC(=O)CN)C(=O)N[C@@H](Cc2ccc(O)cc2)C(=O)N[C@@H](Cc2ccccc2)C(=O)N[C@@H](CCC(N)=O)C(=O)N[C@@H](CC(N)=O)C(=O)N1)C(=O)NCC(N)=O	–	–	–	concentration not given	–	distribution half-life	8 to 50 min
CCN(CC)c1ccc(-c2cc3c(s2)c(C(=O)OC)cc(=O)n3C)cc1	–	–	dichloromethane	10 µM	–	absolute quantum yield	91%
C=C[C@@H]1C[C@]1(NC(=O)[C@@H]1C[C@@H](Oc2nccc3c(OC)cccc23)CN1C(=O)[C@@H](NC(=O)OC(C)(C)C)C(C)(C)C)C(=O)NS(=O)(=O)C1CC1	–	–	rat	oral, dose not given	–	oral bioavailability	9%
CC(C)OC(=O)[C@H](CO)NCc1cc(Cl)c(OCc2cccc(-c3ccccc3)c2Br)cc1OCc1cccnc1	–	–	mouse liver S9	40 min	–	transformation	100%
CNc1nc2ccccc2n2c(CCc3ccccc3)cnc12	–	–	rat	intraperitoneal, dose not given	–	bioavailability	22.7%

SMILES	target or system	assay	system	conditions	scale	endpoint	result
F[P-](F)(F)(F)(F)F.O=C(CCC(=O)[c-]1cccc1)NCCN(CC(=O)Nc1ccc(C#CCN(Cc2ccccn2)Cc2ccccn2)cc1)C(=O)CCc1cn(C[c-]2cccc2)nn1.[C-]#[O+].[C-]#[O+].[C-]#[O+].[C-]#[O+].[C-]#[O+].[C-]#[O+].[Mn+].[Re+].[Ru+2].c1cc[cH-]c1	–	–	water	–	–	solubility	~25 µg/mL
Oc1cccc(-c2cccc(O)n2)n1.[Cl-].[Cl-].[Ru+2].c1cnc2c(c1)c1c(c3cccnc32)OCCO1.c1cnc2c(c1)c1c(c3cccnc32)OCCO1	–	–	–	–	–	pKa2	6.8
O=C([O-])CN1CCN(CC(=O)NCCN(Cc2ccccn2)Cc2ccccn2)CCN(CC(=O)[O-])CCN(CC(=O)NCCN(Cc2ccccn2)Cc2ccccn2)CC1.[Eu+3]	–	–	Eu(III) complex	–	–	TSAP isomer fraction	~40%
C=C[C@@H]1C[C@]1(NC(=O)[C@@H]1C[C@@H](Oc2ncc(OC)c3c(Cl)cccc23)CN1C(=O)[C@@H](NC(=O)OC(C)(C)C)C(C)(C)C)C(=O)NS(=O)(=O)C1CC1	–	–	isolated perfused rabbit heart	10 µM	–	heart rate change	-44%
COCCOCCOCCOCCC(=O)NCc1cc(CNC(=O)CCOCCOCCOCCOC)cc(-c2cc3cc4nc(c(OC)c5[nH]c(cc6nc(cc2[nH]3)CC6(C)C)cc5-c2cc(CNC(=O)CCOCCOCCOCCOC)cc(CNC(=O)CCOCCOCCOCCOC)c2)CC4(C)C)c1	–	–	DMF	room temperature	–	internal conversion yield	0.38
COc1cc2c(NC3CCN(C)CC3)nc(N3CCCN(C)CC3)nc2cc1OCc1ccccc1	–	–	aqueous buffer	pH 6.5	–	kinetic solubility	50 to 100 µg/mL (≈ 0.102 to 0.204 mM)
CC(=O)c1cnc(N)nc1N1CC[C@H]1c1nn2ccc(Cl)c2c(=O)n1-c1ccccc1	–	–	female Wistar rat	oral, 10 mg/kg	–	oral bioavailability	104 ± 18%
C=C[C@@H]1C[C@]1(NC(=O)[C@@H]1C[C@@H](Oc2cc(-c3ccccc3)nc3cc(OC)ccc23)CN1C(=O)[C@@H](NC(=O)OC(C)(C)C)C(C)(C)C)C(=O)NS(=O)(=O)C1CC1	–	–	rat, liver	dose not given, 8 h post-dose	–	tissue concentration	0.6 µM
CN1CCN(c2cc(-c3ccccc3CO)c(N(C)C(=O)C(C)(C)c3cc(C(F)(F)F)cc(C(F)(F)F)c3)cn2)CC1	–	–	healthy volunteers, plasma	oral, dose not given, netupitant-palonosetron, fed	–	Cmax	73.1 ng/mL
CC[C@H](C)[C@H](NC(=O)[C@H](Cc1ccccc1)NC(=O)[C@H](CCC(=O)O)NC(=O)[C@H](CCCCN)NC(=O)[C@H](C)NC(=O)[C@H](C)NC(=O)[C@H](CCC(N)=O)NC(=O)CNC(=O)[C@H](CCC(=O)O)NC(=O)[C@H](CC(C)C)NC(=O)[C@H](Cc1ccc(O)cc1)NC(=O)[C@H](CO)NC(=O)[C@H](CO)NC(=O)[C@@H](NC(=O)[C@H](CC(=O)O)NC(=O)[C@H](CO)NC(=O)[C@@H](NC(=O)[C@H](Cc1ccccc1)NC(=O)[C@@H](NC(=O)CNC(=O)[C@H](CCC(=O)O)NC(=O)[C@H](C)NC(=O)[C@@H](N)Cc1c[nH]cn1)[C@@H](C)O)[C@@H](C)O)C(C)C)C(=O)N[C@@H](C)C(=O)N[C@@H](Cc1c[nH]c2ccccc12)C(=O)N[C@@H](CC(C)C)C(=O)N[C@H](C(=O)N[C@@H](CCCCN)C(=O)NCC(=O)N[C@@H](CCCN=C(N)N)C(=O)NCC(=O)O)C(C)C	–	–	–	–	–	serum half-life	~2 min
c1csc(CNc2cc[nH]n2)c1	–	–	male mice, plasma	oral, 20 mg/kg, dosed as HCl salt	–	Cmax	9780 ng/mL
CC(C)CC(CC(C)C)NC(=O)[C@H](Cc1cnc[nH]1)NC(=O)CNC(=O)[C@@H](NC(=O)[C@H](C)NC(=O)[C@H](Cc1c[nH]c2ccccc12)NC(=O)[C@H](CCC(N)=O)NC(=O)[C@@H](Cc1ccccc1)NC(=O)COCC(=O)Nc1ccc(CNC(=O)CN2CCN(CC(=O)O)CCN(CC(=O)O)CCN(CC(=O)O)CC2)cc1)C(C)C [gallium-68 labelled]	–	–	nude mice, PC-3 tumour xenograft, tumor	250 pmol	–	tissue uptake	~10 %ID/g
CN1CCC(C)(C)c2cc3c(-c4ccc(C(=O)N5CCCCC5)s4)c4ccc(=[N+](C)C)cc-4sc3cc21	–	–	methanol	–	–	molar extinction coefficient	83100 M⁻¹ cm⁻¹
Cc1ccccc1-c1cc(N2CC[N+](C)([O-])CC2)ncc1N(C)C(=O)C(C)(C)c1cc(C(F)(F)F)cc(C(F)(F)F)c1	–	–	healthy volunteers, plasma	oral, dose not given, netupitant-palonosetron, fed	–	Cmax	147 ng/mL
CCC(=O)O[C@@H]1[C@@H](OC(C)=O)C2=C(C(=O)C(O)=C(C(C)C)C2=O)[C@@]2(C)CCCC(C)(C)[C@H]12	MOLT-3	–	–	–	–	GI50	5 to 10 µM
O=C(CCCCC[N+]#[C][99Tc-5]([C]#[N+]CCCCCC(=O)N[C@H]1C(O)O[C@H](CO)[C@@H](O)[C@@H]1O)([C]#[N+]CCCCCC(=O)N[C@H]1C(O)O[C@H](CO)[C@@H](O)[C@@H]1O)([C]#[N+]CCCCCC(=O)N[C@H]1C(O)O[C@H](CO)[C@@H](O)[C@@H]1O)([C]#[N+]CCCCCC(=O)N[C@H]1C(O)O[C@H](CO)[C@@H](O)[C@@H]1O)[C]#[N+]CCCCCC(=O)N[C@H]1C(O)O[C@H](CO)[C@@H](O)[C@@H]1O)N[C@H]1C(O)O[C@H](CO)[C@@H](O)[C@@H]1O (stereo partly shown)	–	–	mouse, A549 tumour model, tumour	dose not given	–	tumour uptake	1.48 ± 0.23 %ID/g
Cc1cccc(-c2cccc(C)n2)n1.[Ru+2].c1ccc(-c2cccc(-c3ccccn3)n2)nc1.c1ccncc1	–	–	water	concentration not given	–	ligand exchange quantum yield	0.41
COc1ccc2c(c1)C(=C1Nc3ccccc3C1=NOCC(O)CO)C(=O)N2 (stereo not shown)	–	–	water	–	–	solubility	50000 µg/mL (≈ 131 mM)
CC(=O)O[C@H]1C2=C(C(=O)C(OC(=O)c3ccccc3)=C(C(C)C)C2=O)[C@@]2(C)CCCC(C)(C)[C@@H]2[C@@H]1OC(=O)c1ccccc1	MCF7	cell growth	–	–	–	GI50	10 to 30 µM
CC(C)Sc1ccc(SC(C)C)c(O)c(=O)c1O	–	–	–	–	–	pKa2	> 12
CC(=O)N1CCC(NC(=O)NC23CC4CC(C)(CC(C2)c2ccccc24)C3)CC1	–	–	mouse liver microsomes	60 min	–	remaining compound	0%
